Measured values collected from several papers.
Parts stem from different laboratories: compare values within a part only.
UniProt P78368, sequence (whole entry, looked up): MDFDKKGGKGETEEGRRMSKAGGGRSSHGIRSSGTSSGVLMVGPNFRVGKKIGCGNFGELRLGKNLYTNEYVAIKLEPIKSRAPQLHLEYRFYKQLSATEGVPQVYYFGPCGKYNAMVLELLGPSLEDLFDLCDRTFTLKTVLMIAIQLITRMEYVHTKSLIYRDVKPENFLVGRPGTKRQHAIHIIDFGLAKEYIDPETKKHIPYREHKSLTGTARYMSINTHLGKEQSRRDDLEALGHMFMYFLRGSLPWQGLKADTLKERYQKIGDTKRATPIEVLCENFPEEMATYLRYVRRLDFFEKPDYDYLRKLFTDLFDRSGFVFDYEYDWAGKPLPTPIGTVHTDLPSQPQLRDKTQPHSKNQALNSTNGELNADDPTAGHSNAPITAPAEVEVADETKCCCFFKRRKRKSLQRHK
UniProt Q9P289, sequence (whole entry, looked up): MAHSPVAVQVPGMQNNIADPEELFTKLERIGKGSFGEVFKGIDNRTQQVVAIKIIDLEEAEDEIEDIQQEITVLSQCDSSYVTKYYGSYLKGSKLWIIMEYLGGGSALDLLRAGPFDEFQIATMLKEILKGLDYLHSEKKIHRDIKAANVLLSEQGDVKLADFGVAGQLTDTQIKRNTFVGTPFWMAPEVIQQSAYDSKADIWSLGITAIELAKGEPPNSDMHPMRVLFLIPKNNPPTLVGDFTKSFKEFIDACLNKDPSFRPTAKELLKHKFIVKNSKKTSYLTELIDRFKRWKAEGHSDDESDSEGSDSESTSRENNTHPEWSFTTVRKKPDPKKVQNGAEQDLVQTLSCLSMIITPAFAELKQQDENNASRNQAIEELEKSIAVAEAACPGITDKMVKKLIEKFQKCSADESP
UniProt Q96D53, sequence (whole entry, looked up): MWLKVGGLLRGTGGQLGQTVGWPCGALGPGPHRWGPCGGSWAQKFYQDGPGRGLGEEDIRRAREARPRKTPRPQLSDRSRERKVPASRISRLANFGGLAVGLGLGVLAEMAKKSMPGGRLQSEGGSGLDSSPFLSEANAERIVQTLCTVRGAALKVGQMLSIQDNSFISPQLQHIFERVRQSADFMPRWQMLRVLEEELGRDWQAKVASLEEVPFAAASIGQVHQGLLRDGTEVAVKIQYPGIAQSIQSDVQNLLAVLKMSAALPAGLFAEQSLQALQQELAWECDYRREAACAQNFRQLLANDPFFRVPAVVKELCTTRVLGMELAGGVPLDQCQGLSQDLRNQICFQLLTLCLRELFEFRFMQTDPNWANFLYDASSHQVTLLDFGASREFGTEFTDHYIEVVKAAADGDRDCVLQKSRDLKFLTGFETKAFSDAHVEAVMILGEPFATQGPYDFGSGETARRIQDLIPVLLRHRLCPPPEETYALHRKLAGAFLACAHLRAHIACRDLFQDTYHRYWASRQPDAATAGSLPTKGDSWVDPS
UniProt Q8IYT8, sequence (whole entry, looked up): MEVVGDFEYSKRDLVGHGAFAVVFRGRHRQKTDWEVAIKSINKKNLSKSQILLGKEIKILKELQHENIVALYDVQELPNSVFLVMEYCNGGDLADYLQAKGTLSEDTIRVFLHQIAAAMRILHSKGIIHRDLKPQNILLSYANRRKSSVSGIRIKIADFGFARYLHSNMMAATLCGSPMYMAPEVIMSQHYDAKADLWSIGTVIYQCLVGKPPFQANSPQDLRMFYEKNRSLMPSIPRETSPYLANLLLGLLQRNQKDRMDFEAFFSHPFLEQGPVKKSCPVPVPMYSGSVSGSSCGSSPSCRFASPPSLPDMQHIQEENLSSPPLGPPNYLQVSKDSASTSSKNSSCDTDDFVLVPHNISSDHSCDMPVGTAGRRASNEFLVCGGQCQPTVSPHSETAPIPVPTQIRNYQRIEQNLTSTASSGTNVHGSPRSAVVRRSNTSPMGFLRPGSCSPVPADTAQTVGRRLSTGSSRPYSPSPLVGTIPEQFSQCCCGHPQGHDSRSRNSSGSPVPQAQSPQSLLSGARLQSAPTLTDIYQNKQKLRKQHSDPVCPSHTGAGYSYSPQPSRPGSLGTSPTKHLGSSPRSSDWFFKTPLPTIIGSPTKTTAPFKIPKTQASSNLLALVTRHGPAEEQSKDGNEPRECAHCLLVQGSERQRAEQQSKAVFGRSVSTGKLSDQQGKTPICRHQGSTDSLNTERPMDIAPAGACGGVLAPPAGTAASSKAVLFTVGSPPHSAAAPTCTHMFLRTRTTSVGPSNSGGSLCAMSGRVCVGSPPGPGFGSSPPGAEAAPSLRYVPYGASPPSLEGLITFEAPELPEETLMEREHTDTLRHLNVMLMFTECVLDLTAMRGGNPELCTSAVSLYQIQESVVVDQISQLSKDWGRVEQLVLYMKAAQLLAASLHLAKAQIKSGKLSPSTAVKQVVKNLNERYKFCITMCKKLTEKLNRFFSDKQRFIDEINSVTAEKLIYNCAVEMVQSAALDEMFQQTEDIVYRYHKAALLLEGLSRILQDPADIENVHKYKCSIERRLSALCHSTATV
UniProt Q15303, sequence (whole entry, looked up): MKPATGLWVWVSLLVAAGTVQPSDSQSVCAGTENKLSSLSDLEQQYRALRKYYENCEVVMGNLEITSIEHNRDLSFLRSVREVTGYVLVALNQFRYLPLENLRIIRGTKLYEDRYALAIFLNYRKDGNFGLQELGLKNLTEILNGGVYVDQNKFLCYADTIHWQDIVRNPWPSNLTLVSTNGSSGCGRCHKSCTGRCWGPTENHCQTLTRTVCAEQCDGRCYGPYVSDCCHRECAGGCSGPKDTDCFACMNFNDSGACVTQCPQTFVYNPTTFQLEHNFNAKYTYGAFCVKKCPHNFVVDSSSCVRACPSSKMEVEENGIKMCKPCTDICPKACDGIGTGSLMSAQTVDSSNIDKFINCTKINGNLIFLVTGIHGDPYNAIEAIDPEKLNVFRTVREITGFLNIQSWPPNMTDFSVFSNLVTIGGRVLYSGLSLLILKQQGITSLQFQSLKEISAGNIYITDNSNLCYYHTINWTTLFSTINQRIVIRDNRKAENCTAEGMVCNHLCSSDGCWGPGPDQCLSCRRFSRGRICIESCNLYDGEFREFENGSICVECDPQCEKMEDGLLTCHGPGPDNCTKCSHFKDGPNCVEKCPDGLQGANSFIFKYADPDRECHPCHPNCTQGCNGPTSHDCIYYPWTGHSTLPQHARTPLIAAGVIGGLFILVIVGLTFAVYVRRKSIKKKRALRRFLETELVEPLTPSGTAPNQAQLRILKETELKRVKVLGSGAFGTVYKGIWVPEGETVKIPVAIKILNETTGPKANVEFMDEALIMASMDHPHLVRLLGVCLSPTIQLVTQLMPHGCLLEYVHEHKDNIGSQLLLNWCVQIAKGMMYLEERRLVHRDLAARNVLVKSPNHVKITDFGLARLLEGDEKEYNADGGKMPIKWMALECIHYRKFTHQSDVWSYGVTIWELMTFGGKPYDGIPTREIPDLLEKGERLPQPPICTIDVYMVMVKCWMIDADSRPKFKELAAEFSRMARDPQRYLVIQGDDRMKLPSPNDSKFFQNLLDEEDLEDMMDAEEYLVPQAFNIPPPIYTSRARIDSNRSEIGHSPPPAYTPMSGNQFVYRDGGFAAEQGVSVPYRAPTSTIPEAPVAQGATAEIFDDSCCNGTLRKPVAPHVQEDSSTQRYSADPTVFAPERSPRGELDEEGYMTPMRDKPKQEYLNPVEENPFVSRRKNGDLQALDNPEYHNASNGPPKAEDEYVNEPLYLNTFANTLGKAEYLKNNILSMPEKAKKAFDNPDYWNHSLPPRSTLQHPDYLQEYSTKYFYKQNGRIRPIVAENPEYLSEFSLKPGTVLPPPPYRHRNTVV
UniProt Q13470, sequence (whole entry, looked up): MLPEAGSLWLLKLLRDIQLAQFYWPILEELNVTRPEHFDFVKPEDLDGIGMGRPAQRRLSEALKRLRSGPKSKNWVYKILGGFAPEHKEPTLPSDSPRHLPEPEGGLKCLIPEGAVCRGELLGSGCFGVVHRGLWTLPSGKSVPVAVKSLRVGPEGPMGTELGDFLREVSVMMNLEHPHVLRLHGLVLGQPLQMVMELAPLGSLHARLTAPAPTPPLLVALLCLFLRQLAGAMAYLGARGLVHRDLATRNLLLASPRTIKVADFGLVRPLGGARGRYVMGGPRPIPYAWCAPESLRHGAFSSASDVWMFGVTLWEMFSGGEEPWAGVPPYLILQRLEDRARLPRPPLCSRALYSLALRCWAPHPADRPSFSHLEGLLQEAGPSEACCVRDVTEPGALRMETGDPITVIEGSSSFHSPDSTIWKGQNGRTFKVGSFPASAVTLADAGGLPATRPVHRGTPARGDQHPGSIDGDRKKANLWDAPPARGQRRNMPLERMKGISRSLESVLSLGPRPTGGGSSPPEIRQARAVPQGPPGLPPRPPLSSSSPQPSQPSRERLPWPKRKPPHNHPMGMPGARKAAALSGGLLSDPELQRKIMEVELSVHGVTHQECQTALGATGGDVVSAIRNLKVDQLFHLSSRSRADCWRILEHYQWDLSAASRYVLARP
UniProt P49137, sequence (whole entry, looked up): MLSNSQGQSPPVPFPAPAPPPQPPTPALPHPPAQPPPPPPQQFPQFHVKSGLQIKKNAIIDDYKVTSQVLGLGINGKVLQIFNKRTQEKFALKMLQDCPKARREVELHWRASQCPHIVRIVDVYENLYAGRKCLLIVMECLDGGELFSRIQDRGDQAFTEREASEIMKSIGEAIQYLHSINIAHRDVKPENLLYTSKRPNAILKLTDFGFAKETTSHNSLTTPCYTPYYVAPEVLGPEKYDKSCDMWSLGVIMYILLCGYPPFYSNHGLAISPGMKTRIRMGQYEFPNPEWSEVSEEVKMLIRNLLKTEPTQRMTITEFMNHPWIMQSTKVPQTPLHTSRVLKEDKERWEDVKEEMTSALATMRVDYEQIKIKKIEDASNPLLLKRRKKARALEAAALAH

Series 1 — observed: cell-free assay; method: competition with immobilised ligand; tested at: 0.1 µM
Compound: C[C@H](c1ccnc(Nc2nc3ccc(-c4cc(N(C)C)ncn4)cc3[nH]2)c1)N1CCN(C(=O)CC(F)(F)F)CC1
It gave 100% for remaining binding (Tyrosine-protein kinase BTK (BTK, Homo sapiens, UniProt Q06187)).
Tyrosine-protein kinase ABL1, phosphorylated (ABL1, Homo sapiens, UniProt P00519, F317L) — remaining binding: 100%.
Epidermal growth factor receptor (EGFR, Homo sapiens, UniProt P00533, del746-750) — remaining binding: 96%.
For Serine/threonine-protein kinase 26 (STK26, Homo sapiens, UniProt Q9P289): remaining binding read 100%.
For Receptor tyrosine-protein kinase erbB-4 (ERBB4, Homo sapiens, UniProt Q15303): remaining binding read 96%.
Atypical kinase COQ8B, mitochondrial (COQ8B, Homo sapiens, UniProt Q96D53) — remaining binding: 79%.
The remaining binding was 84% (Phosphatidylinositol 4,5-bisphosphate 3-kinase catalytic subunit alpha isoform (PIK3CA, Homo sapiens, UniProt P42336, M1043I)).
The remaining binding was 91% (Protein-tyrosine kinase 2-beta (PTK2B, Homo sapiens, UniProt Q14289)).
For Non-receptor tyrosine-protein kinase TNK1 (TNK1, Homo sapiens, UniProt Q13470): remaining binding read 100%.

Series 2 — method: protein binding microarray; form: double-stranded DNA, one strand shown; sample: in vitro; tested at: not given; baseline: not given; direction: higher = stronger binding
Target: Histone acetyltransferase KAT6A, both winged helices, GST fusion (KAT6A, Homo sapiens, UniProt Q92794, residues 1-181)
Setting: 8-mer, flanks averaged, mean of 2 arrays, mostly near background
Construct (chain): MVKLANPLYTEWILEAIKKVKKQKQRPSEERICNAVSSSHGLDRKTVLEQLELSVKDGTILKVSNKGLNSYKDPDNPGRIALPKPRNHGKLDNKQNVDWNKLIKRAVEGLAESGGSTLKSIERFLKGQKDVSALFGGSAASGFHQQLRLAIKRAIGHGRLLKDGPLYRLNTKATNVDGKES
For `ATGCAGGG`, the E-score was -0.16.
`ACTTGCTC` has an E-score of -0.346.
For `GGACTCTA`, the E-score was -0.0791.
For `AATTCGAT`, the E-score was -0.0555.
`CTGCGAAC` has an E-score of -0.0495.
`CGGCCCGC` gave an E-score of 0.294.
`GGACCTAC` gave an E-score of -0.0465.
`AGGCGTCC` has an E-score of -0.0581.

Series 3 — method: RNA Bind-n-Seq; form: RNA; sample: in vitro; tested at: 20 nM; setting: 6-mer, flanks averaged, single round; with: 150 mM KCl; baseline: input library; direction: higher = stronger binding
Target: TAR DNA-binding protein 43, full length, His tag (TARDBP, Homo sapiens, UniProt Q13148, residues 1-414)
Under “6-mer enrichment (R)”, `GGGUCG` is recorded as 3.72.
For `AGGGUG`, “6-mer enrichment (R)” read 4.11.
For `CGCUCC`, “6-mer enrichment (R)” read 0.623.
`AAGAUU`: “6-mer enrichment (R)” 0.566.
`UAGUAA`: “6-mer enrichment (R)” 0.637.
Under “6-mer enrichment (R)”, `UCGCAA` is recorded as 0.635.
`ACCUAG` — result for “6-mer enrichment (R)”: 0.679.

Series 4 — Structure (SMILES): O=C1C(Cl)=C(N2C(=O)CCC2=O)C(=O)c2ccccc21; observed: enzyme activity; mode: inhibitor; tested at: 0.5 µM; baseline: control
It gave 106% for remaining activity (Dual specificity mitogen-activated protein kinase kinase 2 (MAP2K2, Homo sapiens, UniProt P36507)).
It gave 104% for remaining activity (Serine/threonine-protein kinase Nek6 (NEK6, Homo sapiens, UniProt Q9HC98)).
Mitogen-activated protein kinase kinase kinase 14 (MAP3K14, Homo sapiens, UniProt Q99558) — remaining activity: 102%.
The remaining activity was 109% (Rhodopsin kinase GRK7 (GRK7, Homo sapiens, UniProt Q8WTQ7)).
Fibroblast growth factor receptor 1 (FGFR1, Homo sapiens, UniProt P11362) — remaining activity: 99.5%.
Casein kinase I isoform gamma-2 (CSNK1G2, Homo sapiens, UniProt P78368) — remaining activity: 99.3%.
The remaining activity was 90.3% (Tyrosine-protein kinase Mer (MERTK, Homo sapiens, UniProt Q12866)).
For Angiopoietin-1 receptor (TEK, Homo sapiens, UniProt Q02763): remaining activity read 96.7%.
It gave 97.9% for remaining activity (Serine/threonine-protein kinase TBK1 (TBK1, Homo sapiens, UniProt Q9UHD2)).
For Serine/threonine-protein kinase A-Raf (ARAF, Homo sapiens, UniProt P10398): remaining activity read 105%.
The remaining activity was 108% (Serine/threonine-protein kinase ULK2 (ULK2, Homo sapiens, UniProt Q8IYT8)).
It gave 105% for remaining activity (MAP kinase-activated protein kinase 2 (MAPKAPK2, Homo sapiens, UniProt P49137)).

For quick reference, copied from above (series 3):
For `CGCUCC`, “6-mer enrichment (R)” read 0.623.
`ACCUAG` — result for “6-mer enrichment (R)”: 0.679.
For `AGGGUG`, “6-mer enrichment (R)” read 4.11.
